Experimental data from different studies.
Compare with care: the assays were run in different laboratories.
Cell line: MDCK-MDR1

SMILES	setting	scale	endpoint	result
Clc1ccc(-n2c(-c3ccccc3Cl)nc3c(N4CCC(Nc5ccccc5)CC4)ncnc32)cc1	10 µM, 1 h, pH 7.4, 37 °C	–	permeability A to B	0%
Cc1c(Br)cc(NC(=O)C(c2ccccc2)S(=O)(=O)O)cc1Br (stereo not shown)	MDR1 inhibited	–	Papp	0.55 ×10⁻⁶ cm/s
CC(C(=O)NC1CCN(c2ncnc3c2nc(-c2ccccc2Cl)n3-c2ccc(Cl)cc2)CC1)c1ccccc1 (stereo not shown)	10 µM, 1 h, pH 7.4, 37 °C	–	permeability A to B	< 0.1%
CCCC#Cc1ccc([C@@H](CO)C(=O)N[C@H](C)c2ccccc2)cc1	–	relative to: B-to-A over A-to-B	efflux ratio	1.1
CC(C)CN(C[C@@H](O)[C@H](Cc1ccccc1)NC(=O)O[C@H]1CCOC1)S(=O)(=O)c1ccc(N)cc1	2 h, with: 0.25% BSA	–	Papp	2.73 ×10⁻⁶ cm/s
O=C(Nc1nc2ccccc2s1)C(c1ccccc1)S(=O)(=O)O (stereo not shown)	MDR1 inhibited	–	Papp	0.011 ×10⁻⁶ cm/s
C#C[C@]1(O)CC[C@H]2[C@@H]3CCc4cc(O)ccc4[C@H]3CC[C@@]21C	pH 7.4	–	Papp	64.5 ×10⁻⁶ cm/s
Cc1c(Br)cc(NC(=O)NS(=O)(=O)O)cc1Br	MDR1 inhibited	–	Papp	0.057 ×10⁻⁶ cm/s
CO[C@H]1C[C@@H]2CC[C@@H](C)[C@@](O)(O2)C(=O)C(=O)N2CCCC[C@H]2C(=O)O[C@H]([C@H](C)C[C@@H]2CC[C@@H](O)[C@H](OC)C2)CC(=O)[C@H](C)/C=C(\C)[C@@H](O)[C@@H](OC)C(=O)[C@H](C)C[C@H](C)/C=C/C=C/C=C/1C	2 h, with: 0.25% BSA	–	Papp	0.48 ×10⁻⁶ cm/s
O=C(NC1CCN(c2ncnc3c2nc(-c2ccccc2Cl)n3-c2ccc(Cl)cc2)CC1)c1ccc(F)cc1F	10 µM, 1 h, pH 7.4, 37 °C	–	permeability A to B	< 0.1%

For quick reference, copied from above:
SMILES	setting	scale	endpoint	result
Cc1c(Br)cc(NC(=O)NS(=O)(=O)O)cc1Br	MDR1 inhibited	–	Papp	0.057 ×10⁻⁶ cm/s
Clc1ccc(-n2c(-c3ccccc3Cl)nc3c(N4CCC(Nc5ccccc5)CC4)ncnc32)cc1	10 µM, 1 h, pH 7.4, 37 °C	–	permeability A to B	0%
